{"data": "Results pooled from the literature", "SPT15 full length assumed": "SPT15 full length assumed (Saccharomyces cerevisiae, UniProt P13393)", "U2AF2": "U2AF2 148-342 (Homo sapiens, UniProt P26368)", "B1": "PP6 regulatory subunit 3 (human); sequence looked up; chain MFWKFDLHSSSHIDTLLEREDVTLKELMDEEDVLQECKAQNRKLIEFLLKAECLEDLVSFIIEEPPQDMDEKIRYKYPNISCELLTSDVSQMNDRLGEDESLLMKLYSFLLNDSPLNPLLASFFSKVLSILISRKPEQIVDFLKKKHDFVDLIIKHIGTSAIMDLLLRLLTCIEPPQPRQDVLNWLNEEKIIQRLVEIVHPSQEEDRHSNASQSLCEIVRLSRDQMLQIQNSTEPDPLLATLEKQEIIEQLLSNIFHKEKNESAIVSAIQILLTLLETRRPTFEGHIEICPPGMSHSACSVNKSVLEAIRGRLGSFHELLLEPPKKSVMKTTWGVLDPPVGNTRLNVIRLISSLLQTNTSSINGDLMELNSIGVILNMFFKYTWNNFLHTQVEICIALILASPFENTENATITDQDSTGDNLLLKHLFQKCQLIERILEAWEMNEKKQAEGGRRHGYMGHLTRIANCIVHSTDKGPNSALVQQLIKDLPDEVRERWETFCTSSLGETNKRNTVDLVTTCHIHSSSDDEIDFKETGFSQDSSLQQAFSDYQMQQMTSNFIDQFGFNDEKFADQDDIGNVSFDRVSDINFTLNTNESGNIALFEACCKERIQQFDDGGSDEEDIWEEKHIAFTPESQRRSSSGSTDSEESTDSEEEDGAKQDLFEPSSANTEDKMEVDLSEPPNWSANFDVPMETTHGAPLDSVGSDVWSTEEPMPTKETGWASFSEFTSSLSTKDSLRSNSPVEMETSTEPMDPLTPSAAALAVQPEAAGSVAMEASSDGEEDAESTDKVTETVMNGGMKETLSLTVDAKTETAVFKSEEGKLSTSQDAACKDAEECPETAEAKCAAPRPPSSSPEQRTGQPSAPGDTSVNGPV", "B2": "BAG2; sequence looked up; chain AQAKINAKANEGRFCRSSSMADRSSRLLESLDQLELRVEALREAATAVEQEKEILLEMIHSIQNSQDMRQISDGEREELNLTANRLMGRTLTVEVSVETIRNPQQQESLKHATRIIDEVVNKFLDDLGNAKSHLMSLYSACSSEVPHGPVDQKFQSIVIGCALEDQKKIKRRLETLLRNIENSDKAIKLLEHSKGAGSKTLQQNAESRFN", "B3": "human dermcidin; sequence looked up; chain YDPEAASAPGSGNPCHEASAAQKENAGEDPGLARQAPKPRKQRSSLLEKGLDGAKKAVGGLGKLGKDAVEDLESVGKGAVHDVKDVLDSVL", "B4": "human KLK7; sequence looked up; chain IIDGAPCARGSHPWQVALLSGNQLHCGGVLVNERWVLTAAHCKMNEYTVHLGSDTLGDRRAQRIKASKSFRHPGYSTQTHVNDLMLVKLNSQARLSSMVKKVRLPSRCEPPGTTCTVSGWGTTTSPDVTFPSDLMCVDVKLISPQDCTKVYKDLLENSMLCAGIPDSKKNACNGDSGGPLVCRGTLQGLVSWGTFPCGQPNDPGVYTQVCKFTKWINDTMKKHR", "note": "Several values in a cell are separate wells, animals, samples, runs or records. ± gives the spread as reported.", "UniProt P13393, sequence (whole entry, looked up)": "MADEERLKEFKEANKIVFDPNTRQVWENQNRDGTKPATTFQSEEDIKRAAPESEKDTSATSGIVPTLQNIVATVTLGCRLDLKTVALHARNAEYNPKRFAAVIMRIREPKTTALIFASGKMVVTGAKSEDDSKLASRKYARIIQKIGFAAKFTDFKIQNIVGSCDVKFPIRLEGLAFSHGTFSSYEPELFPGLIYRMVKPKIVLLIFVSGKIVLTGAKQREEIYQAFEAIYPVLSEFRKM", "UniProt P26368, sequence (whole entry, looked up)": "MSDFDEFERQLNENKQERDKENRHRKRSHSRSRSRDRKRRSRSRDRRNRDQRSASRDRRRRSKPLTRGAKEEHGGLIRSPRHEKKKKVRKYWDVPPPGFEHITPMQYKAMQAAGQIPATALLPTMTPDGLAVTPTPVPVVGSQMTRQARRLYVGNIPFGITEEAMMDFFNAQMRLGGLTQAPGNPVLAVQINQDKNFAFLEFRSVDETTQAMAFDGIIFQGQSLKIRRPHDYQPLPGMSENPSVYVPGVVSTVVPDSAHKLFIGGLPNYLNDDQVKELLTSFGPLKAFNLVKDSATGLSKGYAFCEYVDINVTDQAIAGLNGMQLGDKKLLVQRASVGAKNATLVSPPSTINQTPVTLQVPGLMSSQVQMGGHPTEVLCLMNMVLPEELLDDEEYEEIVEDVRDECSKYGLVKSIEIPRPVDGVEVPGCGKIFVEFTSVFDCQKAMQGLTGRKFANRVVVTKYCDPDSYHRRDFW"}
{"Molecule": "TACTTCAGTTGTGAAGTGTAACAAGGTCTTATAATTCAAGTCAATCGGTCC (dsDNA; 5'-amino-C6 primer)", "tested on": "SPT15 full length assumed", "assay": "array", "system": "double-stranded DNA, one strand shown", "setting": "TBP alone", "measurement": "Kd", "result": "2.52 ± 0.26 nM"}
{"Molecule": "CACUAUUUU (ssRNA)", "tested on": "U2AF2", "assay": "sequencing of bound RNA", "system": "RNA", "setting": "motif only", "measurement": "Kd", "result": "2210 nM"}
{"Molecule": "SEKHFRETEV", "tested on": "construct, MBP fusion, human SCRIB, PDZ 3-4", "assay": "surface plasmon resonance", "system": "peptide", "setting": "concentration not given", "scale": "higher = stronger binding", "measurement": "normalised SPR binding response", "result": "102 normalised RU"}
{"Molecule": "phosphatidylinositol 4,5-bisphosphate", "tested on": "adenosine A2A receptor thermostabilised", "assay": "equilibrium dialysis LC-MS", "setting": "5 µM, normalised z-score", "scale": "baseline: no protein", "measurement": "log2 fold change", "result": 0.56}
{"Molecule": "PMESGICTIV", "tested on": "construct, MBP fusion, human SCRIB, PDZ 3-4", "assay": "automated holdup", "system": "peptide, crude extract", "setting": "concentration not given, uncorrected, unit not given", "scale": "baseline: biotin control resin, higher = stronger binding", "measurement": "binding intensity", "result": 0.168}
{"Molecule": "GEMVGQARILAQATSDLVNAIKDA", "tested on": "vinculin head domain Vd1", "assay": "complex rupture, AFM single-molecule force spectroscopy", "system": "peptide", "setting": "multiple traces, C-terminal pulling, 800 nm/s", "measurement": "rupture force FWHM upper side", "result": "11.5 pN"}
{"Molecule": "B1 (PP6 regulatory subunit 3)", "tested on": "PP6C (human)", "assay": "co-immunoprecipitation, IP-MS", "system": "CYB5R4 knockout cells", "setting": "concentration not given", "scale": "baseline: CYB5R4 knockout over parental", "measurement": "log2 fold change", "result": -0.79}
{"Molecule": "VVVGACGVGK", "tested on": "HLA-A*11:01 peptide-β2M single-chain trimer", "assay": "western blot, item: pMHC-I", "system": "peptide, 293T cells", "setting": "12 h, unit not given, with: 100 µg/mL cycloheximide", "scale": "baseline: time zero", "measurement": "remaining protein", "result": "0.803 and 0.819 and 0.801"}
{"Molecule": "B2 (BAG2)", "tested on": "PP6C (human)", "assay": "co-immunoprecipitation, IP-MS", "system": "CYB5R4 knockout cells", "setting": "concentration not given", "scale": "baseline: CYB5R4 knockout over parental", "measurement": "log2 fold change", "result": 0.73}
{"Molecule": "KPGKGSETVV", "tested on": "construct, MBP fusion, human SCRIB, PDZ 3-4", "assay": "automated holdup", "system": "peptide, crude extract", "setting": "concentration not given, uncorrected, unit not given", "scale": "baseline: biotin control resin, higher = stronger binding", "measurement": "binding intensity", "result": 0.0895}
{"Molecule": "GAAUACUUG (ssRNA)", "tested on": "U2AF2", "assay": "sequencing of bound RNA", "system": "RNA", "setting": "motif only", "measurement": "Kd", "result": "12600 nM"}
{"Molecule": "B3 (human dermcidin)", "tested on": "PP6C (human)", "assay": "co-immunoprecipitation, IP-MS", "system": "CYB5R4 knockout cells", "setting": "concentration not given", "scale": "baseline: CYB5R4 knockout over parental", "measurement": "log2 fold change", "result": -0.4}
{"Molecule": "TCCTGAAGGGGCGACTATAAAAGGTCCTATCGTCGTCAAGTCAATCGGTCC (dsDNA; 5'-amino-C6 primer)", "tested on": "SPT15 full length assumed", "assay": "array", "system": "double-stranded DNA, one strand shown", "setting": "TBP alone", "measurement": "Kd", "result": "1.21 ± 0.06 nM"}
{"Molecule": "Relaxin", "tested on": "RXFP1", "assay": "AlphaScreen", "system": "HEK293 expressing RXFP1", "setting": "8 pM", "measurement": "cAMP increase", "result": "~2 % above basal"}
{"Molecule": "colistin", "tested on": "Acinetobacter baumannii", "assay": "broth microdilution", "system": "clinical isolate RKI-No_12/16", "measurement": "MIC", "result": "≤ 0.5 mg/L"}
{"Molecule": "GGWVEKETYY", "tested on": "construct, MBP fusion, human SCRIB, PDZ 3-4", "assay": "automated holdup", "system": "peptide, purified PDZ protein", "setting": "concentration not given, unit not given", "scale": "baseline: biotin control resin, higher = stronger binding", "measurement": "binding intensity", "result": 0.0495}
{"Molecule": "VVVGASGVGK", "tested on": "HLA-A*11:01 peptide-β2M single-chain trimer", "assay": "western blot, item: pMHC-I", "system": "peptide, 293T cells", "setting": "24 h, unit not given, with: 100 µg/mL cycloheximide", "scale": "baseline: time zero", "measurement": "remaining protein", "result": "0.616 and 0.596 and 0.583"}
{"Molecule": "(-)-epigallocatechin", "tested on": "Nrf2", "assay": "Nrf2 induction, inducer", "scale": "baseline: control", "measurement": "fold induction", "result": "1 fold"}
{"Molecule": "NPDALPETLV", "tested on": "construct, MBP fusion, human SCRIB, PDZ 3-4", "assay": "automated holdup", "system": "peptide, purified PDZ protein", "setting": "concentration not given, unit not given", "scale": "baseline: biotin control resin, higher = stronger binding", "measurement": "binding intensity", "result": 0.265}
{"Molecule": "B4 (human KLK7)", "tested on": "PP6C (human)", "assay": "co-immunoprecipitation, IP-MS", "system": "CYB5R4 knockout cells", "setting": "concentration not given", "scale": "baseline: CYB5R4 knockout over parental", "measurement": "log2 fold change", "result": 2.03}
{"Molecule": "MAPVLYLQDKSSN", "tested on": "DnaK (Escherichia coli)", "assay": "fluorescence polarization", "system": "peptide", "setting": "500 µM, 10 °C, with: ATP", "measurement": "bound fraction", "result": "99.9%"}
{"Molecule": "human Hsp90-beta", "tested on": "PP6C (human)", "assay": "co-immunoprecipitation, IP-MS", "system": "CYB5R4 knockout cells", "setting": "concentration not given", "scale": "baseline: CYB5R4 knockout over parental", "measurement": "log2 fold change", "result": 0.0012}
{"Molecule": "GSGAGIESNV", "tested on": "construct, MBP fusion, human SCRIB, PDZ 3-4", "assay": "automated holdup", "system": "peptide, crude extract", "setting": "concentration not given, uncorrected, unit not given", "scale": "baseline: biotin control resin, higher = stronger binding", "measurement": "binding intensity", "result": 0.789}
{"note": "Excerpt of the above:"}
{"Molecule": "GEMVGQARILAQATSDLVNAIKDA", "tested on": "vinculin head domain Vd1", "assay": "complex rupture, AFM single-molecule force spectroscopy", "system": "peptide", "setting": "multiple traces, C-terminal pulling, 800 nm/s", "measurement": "rupture force FWHM upper side", "result": "11.5 pN"}
{"Molecule": "B1 (PP6 regulatory subunit 3)", "tested on": "PP6C (human)", "assay": "co-immunoprecipitation, IP-MS", "system": "CYB5R4 knockout cells", "setting": "concentration not given", "scale": "baseline: CYB5R4 knockout over parental", "measurement": "log2 fold change", "result": -0.79}
{"Molecule": "VVVGACGVGK", "tested on": "HLA-A*11:01 peptide-β2M single-chain trimer", "assay": "western blot, item: pMHC-I", "system": "peptide, 293T cells", "setting": "12 h, unit not given, with: 100 µg/mL cycloheximide", "scale": "baseline: time zero", "measurement": "remaining protein", "result": "0.803 and 0.819 and 0.801"}
{"Molecule": "B2 (BAG2)", "tested on": "PP6C (human)", "assay": "co-immunoprecipitation, IP-MS", "system": "CYB5R4 knockout cells", "setting": "concentration not given", "scale": "baseline: CYB5R4 knockout over parental", "measurement": "log2 fold change", "result": 0.73}
